Measurements of several laboratories.
Parts stem from different laboratories: compare values within a part only.

Set 1 — technique: universal PBM; molecule type: double-stranded DNA, one strand shown; medium: in vitro; concentration: not given; reading: higher = stronger binding
Target: Sal-like protein 4, full length isoform B (SALL4, Homo sapiens, UniProt Q9UJQ4-2, residues 1-616)
Notes: 8-mer, flanks averaged, mean of replicates
Construct (chain): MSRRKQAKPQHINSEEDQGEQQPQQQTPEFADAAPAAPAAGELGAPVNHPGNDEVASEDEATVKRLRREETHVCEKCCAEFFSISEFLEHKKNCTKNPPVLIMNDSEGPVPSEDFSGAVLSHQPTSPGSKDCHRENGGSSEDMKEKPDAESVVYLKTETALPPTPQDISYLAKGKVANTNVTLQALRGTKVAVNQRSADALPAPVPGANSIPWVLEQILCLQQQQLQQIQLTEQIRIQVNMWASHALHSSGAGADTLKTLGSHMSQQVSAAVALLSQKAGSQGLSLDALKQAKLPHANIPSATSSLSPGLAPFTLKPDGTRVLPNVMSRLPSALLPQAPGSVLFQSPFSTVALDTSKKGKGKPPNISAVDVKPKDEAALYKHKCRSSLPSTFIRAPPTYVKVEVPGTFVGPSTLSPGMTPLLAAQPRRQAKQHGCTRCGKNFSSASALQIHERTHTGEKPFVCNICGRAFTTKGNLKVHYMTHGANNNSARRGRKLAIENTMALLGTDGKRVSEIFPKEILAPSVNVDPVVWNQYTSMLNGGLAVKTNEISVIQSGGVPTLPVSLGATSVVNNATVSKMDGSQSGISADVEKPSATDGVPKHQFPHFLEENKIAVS
| Strand | E-score |
| --- | --- |
| GTAGGCGA | -0.102 |
| GCCATAAA | 0.162 |
| AGCTAGTG | -0.226 |
| GGGTTACA | -0.0266 |
| CAGCACGA | -0.162 |
| AGGCGTCC | -0.227 |

Set 2 — technique: RNAcompete; molecule type: RNA; medium: in vitro; concentration: 20 nM; notes: 7-mer, probes averaged, single round; relative to: mean of 7-mers; reading: higher = stronger binding
Target: PABPC1L2, full length, GST fusion (mouse, UniProt A0ABA7IW68)
Construct (chain): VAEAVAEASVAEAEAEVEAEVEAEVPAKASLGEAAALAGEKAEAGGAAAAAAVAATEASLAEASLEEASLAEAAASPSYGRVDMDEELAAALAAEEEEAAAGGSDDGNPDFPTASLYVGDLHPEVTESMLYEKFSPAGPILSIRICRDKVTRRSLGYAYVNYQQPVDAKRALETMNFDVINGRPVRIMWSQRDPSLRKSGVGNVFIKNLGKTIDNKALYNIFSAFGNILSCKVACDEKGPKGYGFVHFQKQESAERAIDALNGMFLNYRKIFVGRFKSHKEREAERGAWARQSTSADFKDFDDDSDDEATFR
| Strand | 7-mer Z-score |
| --- | --- |
| AUGCAUU | -0.193 |
| AGGGAAA | 0.91 |
| UGCUGUU | -0.458 |
| CUGGAUG | -0.0699 |
| CCGUUUG | -0.559 |
| UCUUGAA | -0.168 |
| CAUUGCA | -0.115 |

Set 3 — technique: protein binding microarray; molecule type: double-stranded DNA, one strand shown; medium: in vitro; concentration: not given; relative to: not given; reading: higher = stronger binding
Target: Histone acetyltransferase KAT6A, winged helix 1, GST fusion (KAT6A, Homo sapiens, UniProt Q92794, residues 1-85)
Notes: 8-mer, flanks averaged, mean of 2 arrays, mostly near background
Target sequence (chain): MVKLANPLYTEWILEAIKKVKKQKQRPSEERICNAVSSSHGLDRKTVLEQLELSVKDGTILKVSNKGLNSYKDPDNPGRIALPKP
| Strand | E-score |
| --- | --- |
| GACGTCAA | -0.00864 |
| AACCAGTC | 0.0286 |
| CATGGGGC | -0.0675 |
| CCGGGCAA | 0.287 |
| ACTGACAC | -0.0352 |

Mixed results
| Molecule | target | test | test system | setting | how to read | quantity | result |
| --- | --- | --- | --- | --- | --- | --- | --- |
| PhoQ, residues 284 288 289 292 302 303 SLSLLA | PhoP, residues 12 14 15 18 19 LHTVL (Escherichia coli, UniProt P23836) | Sort-seq, measured: YFP reporter | E. coli | PhoQ-PhoP variant library, together with: 10 µM Mg2+ | relative to: high Mg2+ state, higher = stronger signaling | fold induction | 1.11 |

Excerpt of the above (set 2):
| Strand | 7-mer Z-score |
| --- | --- |
| UCUUGAA | -0.168 |
| UGCUGUU | -0.458 |
